Assay results pooled from the literature.
± gives the spread as reported.
UniProt Q7TMS5, sequence (whole entry, looked up): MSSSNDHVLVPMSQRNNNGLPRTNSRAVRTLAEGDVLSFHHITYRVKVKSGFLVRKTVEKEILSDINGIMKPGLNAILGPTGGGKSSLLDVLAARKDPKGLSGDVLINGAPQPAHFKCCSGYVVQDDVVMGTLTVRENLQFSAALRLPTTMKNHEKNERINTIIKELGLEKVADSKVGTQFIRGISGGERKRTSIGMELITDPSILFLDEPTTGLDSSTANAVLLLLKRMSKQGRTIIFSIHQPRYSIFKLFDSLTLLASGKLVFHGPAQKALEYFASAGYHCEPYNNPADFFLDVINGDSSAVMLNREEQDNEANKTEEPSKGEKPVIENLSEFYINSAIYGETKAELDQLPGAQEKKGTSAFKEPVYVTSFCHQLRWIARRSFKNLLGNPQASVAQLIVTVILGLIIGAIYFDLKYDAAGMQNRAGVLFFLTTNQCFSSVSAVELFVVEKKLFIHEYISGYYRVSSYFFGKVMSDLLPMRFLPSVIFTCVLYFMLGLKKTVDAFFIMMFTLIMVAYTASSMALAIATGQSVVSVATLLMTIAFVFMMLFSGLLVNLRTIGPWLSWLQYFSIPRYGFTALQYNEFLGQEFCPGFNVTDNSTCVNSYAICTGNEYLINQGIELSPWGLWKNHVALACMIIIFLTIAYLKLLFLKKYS
UniProt P10632, sequence (whole entry, looked up): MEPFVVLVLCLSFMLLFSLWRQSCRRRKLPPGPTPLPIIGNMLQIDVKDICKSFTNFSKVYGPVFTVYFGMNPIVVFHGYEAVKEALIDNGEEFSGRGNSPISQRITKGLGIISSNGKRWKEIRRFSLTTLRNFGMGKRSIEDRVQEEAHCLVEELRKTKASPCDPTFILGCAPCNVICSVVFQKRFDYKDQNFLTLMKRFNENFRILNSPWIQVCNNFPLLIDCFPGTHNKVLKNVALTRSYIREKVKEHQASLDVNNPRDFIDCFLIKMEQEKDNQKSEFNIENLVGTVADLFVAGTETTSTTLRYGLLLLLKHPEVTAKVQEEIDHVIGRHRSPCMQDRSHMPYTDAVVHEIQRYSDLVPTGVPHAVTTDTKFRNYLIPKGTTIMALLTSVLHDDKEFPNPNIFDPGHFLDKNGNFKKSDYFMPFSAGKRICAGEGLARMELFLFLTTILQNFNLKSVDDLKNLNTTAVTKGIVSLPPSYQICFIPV
UniProt P11509, sequence (whole entry, looked up): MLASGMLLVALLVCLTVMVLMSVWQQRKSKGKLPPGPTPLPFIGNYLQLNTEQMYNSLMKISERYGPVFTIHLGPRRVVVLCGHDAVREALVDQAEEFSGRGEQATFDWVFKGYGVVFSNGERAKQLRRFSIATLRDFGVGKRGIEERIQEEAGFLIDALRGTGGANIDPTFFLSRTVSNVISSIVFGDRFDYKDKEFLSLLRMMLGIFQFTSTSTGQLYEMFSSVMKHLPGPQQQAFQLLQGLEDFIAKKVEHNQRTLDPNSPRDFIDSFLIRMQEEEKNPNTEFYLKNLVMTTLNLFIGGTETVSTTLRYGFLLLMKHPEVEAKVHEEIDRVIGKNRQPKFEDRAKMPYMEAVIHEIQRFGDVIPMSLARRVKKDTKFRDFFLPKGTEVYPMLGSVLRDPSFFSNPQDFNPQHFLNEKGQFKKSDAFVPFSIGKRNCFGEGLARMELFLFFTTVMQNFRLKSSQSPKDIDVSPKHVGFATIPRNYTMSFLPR

Compound	tested on	test	test system	conditions	how to read	measurement	result
Cc1coc2c1CC[C@@H](C)C2	Cytochrome P450 2A6 (CYP2A6, Homo sapiens, UniProt P11509)	coumarin 7-hydroxylation, inactivator, reconstituted enzyme	–	20 µM, 10 min, 30 °C	baseline: without NADPH	remaining activity	28.5 ± 1.6%
Cc1nc2cccc(OCC(C)(C)C(=O)NC(C)C)c2c(N)c1C(=O)O	–	–	male Sprague-Dawley rat, plasma	oral food admix, 60 mg/kg/day, day 7, 90-day dietary study	–	AUC(0-24 h)	228 ng·h/mL
CC[C@H](C)[C@H](NC(=O)[C@H](CCC(=O)O)NC(=O)[C@H](CO)NC(=O)[C@@H](NC(=O)[C@@H](N)CO)C(C)C)C(=O)N[C@@H](CCC(N)=O)C(=O)N[C@@H](CC(C)C)C(=O)N[C@@H](CCSC)C(=O)N[C@@H](Cc1cnc[nH]1)C(=O)N[C@@H](CC(N)=O)C(=O)N[C@@H](CC(C)C)C(=O)NCC(=O)N[C@@H](CCCCN)C(=O)N[C@@H](Cc1cnc[nH]1)C(=O)N[C@@H](CC(C)C)C(=O)N[C@@H](CC(N)=O)C(=O)N[C@@H](CO)C(=O)N[C@@H](CCSC)C(=O)N[C@@H](CCC(=O)O)C(=O)N[C@@H](CCCN=C(N)N)C(=O)N[C@H](C(=O)N[C@@H](CCC(=O)O)C(=O)N[C@@H](Cc1c[nH]c2ccccc12)C(=O)N[C@@H](CC(C)C)C(=O)N[C@@H](CCCN=C(N)N)C(=O)N[C@@H](CCCCN)C(=O)N[C@@H](CCCCN)C(=O)N[C@@H](CC(C)C)C(=O)N[C@@H](CCC(N)=O)C(=O)N[C@@H](CC(=O)O)C(=O)N[C@H](C(=O)N[C@@H](Cc1cnc[nH]1)C(=O)N[C@@H](CC(N)=O)C(=O)N[C@@H](Cc1ccccc1)C(=O)O)C(C)C)C(C)C	Chymotrypsinogen A, activated (chymotrypsin) (Bos taurus, UniProt P00766)	substrate, HPLC-UV	–	15 min, pH 6.5, 37 °C, without trypsin inhibitor	–	remaining intact compound	0%
Cc1cc(O)c(=O)c(O)cc1C(=O)N1CCC2(CC1)C1CC3CC(C1)CC2C3	herpes simplex virus 1	viral replication	Vero	–	baseline: CC50 over EC50	selectivity index	80
CC1=N[C@]2(C(=O)CO)[C@@H](C[C@H]3[C@@H]4C[C@@H](O)C5=CC(=O)C=C[C@]5(C)[C@H]4[C@@H](O)C[C@@]32C)O1	Cytochrome P450 2C8 (CYP2C8, Homo sapiens, UniProt P10632)	–	pooled human liver microsomes	30 min preincubation, added: paclitaxel probe and NADPH	–	IC50	> 50 µM
CCCOc1ccc([C@H]2CNC(=O)N2c2ccc3[nH]cnc3c2)cc1	–	–	human volunteers fasted, plasma	oral tablet, 1800 mg single dose, day 1, geometric mean	–	AUC(0-tlast)	32200 ng·h/mL
CCCC[C@H](NC(C)=O)C(=O)N[C@H]1CCC(=O)NC[C@@H](C(=O)N[C@@H](Cc2c[nH]c3ccccc23)C(N)=O)NC(=O)[C@H](CCCNC(=N)N)NC(=O)[C@@H](Cc2ccccc2)NC(=O)[C@H](Cc2c[nH]cn2)NC1=O	–	–	CD Sprague-Dawley rat, male, plasma	subcutaneous, 5.0 mg/kg/day, day 1	–	AUC(0-t)	4300 ng·h/mL
Cc1ccc(Nc2nccc(N(C)c3ccc4c(C)n(C)nc4c3)n2)cc1S(N)(=O)=O	Broad substrate specificity ATP-binding cassette transporter ABCG2 (Mus musculus, UniProt Q7TMS5)	bidirectional transport	MDCK-Bcrp1 (murine Bcrp1)	5 µM, 240 min, added: canertinib	–	efflux ratio	2.3

Excerpt of the above:
Compound	tested on	test	test system	conditions	how to read	measurement	result
CC[C@H](C)[C@H](NC(=O)[C@H](CCC(=O)O)NC(=O)[C@H](CO)NC(=O)[C@@H](NC(=O)[C@@H](N)CO)C(C)C)C(=O)N[C@@H](CCC(N)=O)C(=O)N[C@@H](CC(C)C)C(=O)N[C@@H](CCSC)C(=O)N[C@@H](Cc1cnc[nH]1)C(=O)N[C@@H](CC(N)=O)C(=O)N[C@@H](CC(C)C)C(=O)NCC(=O)N[C@@H](CCCCN)C(=O)N[C@@H](Cc1cnc[nH]1)C(=O)N[C@@H](CC(C)C)C(=O)N[C@@H](CC(N)=O)C(=O)N[C@@H](CO)C(=O)N[C@@H](CCSC)C(=O)N[C@@H](CCC(=O)O)C(=O)N[C@@H](CCCN=C(N)N)C(=O)N[C@H](C(=O)N[C@@H](CCC(=O)O)C(=O)N[C@@H](Cc1c[nH]c2ccccc12)C(=O)N[C@@H](CC(C)C)C(=O)N[C@@H](CCCN=C(N)N)C(=O)N[C@@H](CCCCN)C(=O)N[C@@H](CCCCN)C(=O)N[C@@H](CC(C)C)C(=O)N[C@@H](CCC(N)=O)C(=O)N[C@@H](CC(=O)O)C(=O)N[C@H](C(=O)N[C@@H](Cc1cnc[nH]1)C(=O)N[C@@H](CC(N)=O)C(=O)N[C@@H](Cc1ccccc1)C(=O)O)C(C)C)C(C)C	Chymotrypsinogen A, activated (chymotrypsin) (Bos taurus, UniProt P00766)	substrate, HPLC-UV	–	15 min, pH 6.5, 37 °C, without trypsin inhibitor	–	remaining intact compound	0%
